Assay results of several laboratories.
Target: Serine/threonine-protein kinase PknB (pknB, Mycobacterium tuberculosis, UniProt P9WI81)

`Nc1ncc2c(n1)-c1c([nH]c3ccc(C4=CCOCC4)cc13)CCC2` gave a remaining binding of 96% (binding, competition with immobilised ligand; 1 µM).
For `C=CC(=O)N1CCCC(n2c(=O)c3ncccc3n(Cc3ccc(Oc4ccccc4)cc3)c2=O)C1` (centres unmarked), the remaining binding was 100% (cell-free assay, competition with immobilised ligand; 1 µM).
With `CC(C)=CC1OC(C)(C)C2C=C3C(=O)C(Cl)=CC(O)C3C3C(O)C4OC4C(=O)C132` (centres unmarked) the remaining binding was 98% (cell-free assay, competition with immobilised ligand; 10 µM).
For `CNC1C[S+]2CC[S+]3CC[S+](C1)[Ru-4]321([N]=C=S)[n]2c3ccc(OC)cc3c3c4c(c5cc(F)c[n+]1c5c32)C(=O)NC4=O` (centres unmarked), the remaining activity was 99% (0.1 µM).
The remaining binding of `Cc1cnc2nc1Nc1cccc(c1)COC/C=C/COCc1cc(ccc1OCCN1CCOCC1)N2` is reported as 97% (binding, competition with immobilised ligand; 0.1 µM).
The remaining binding of `Cc1ccc(-c2c(/C=C(\C#N)C(=O)NC(C)C)n(CCCO)c3ncnc(N)c23)cc1` is reported as 100% (cell-free assay, competition with immobilised ligand; 1 µM).
`CCN1CCN(Cc2ccc(C(=O)Nc3ccc(C)c(NCc4cnc5[nH]ccc5c4OC)c3)cc2C(F)(F)F)CC1` has a remaining binding of 100% (binding, competition with immobilised ligand; 1 µM).
With `C=CC(=O)N1CCc2ccc(-n3c(=O)ccc4cnc5ccc(-c6cnn(C)c6)cc5c43)cc21` the remaining binding was 99% (KINOMEscan; 1 µM; relative to: control).
With `CNC(=O)C1CCN(c2cc(C)c(F)cc2NC(=O)c2ccc(-c3cc(O)ccc3C)c(C)c2)CC1` the remaining binding was 91% (binding, competition with immobilised ligand; 1 µM).
`COc1cc(Nc2nccc(-c3cnn4nc(OC)ccc34)n2)cc(C(F)(F)F)c1` has a remaining binding of 72% (binding, competition with immobilised ligand; 1 µM).
With `COc1c(Cl)cccc1Nc1c(-c2ccncc2C#C[C@@]2(C)CCCN2C(=O)/C=C/CN(C)C)[nH]c2c1C(=O)NCC2` the remaining binding was 100% (cell-free assay, competition with immobilised ligand; 3 µM).
